Measurements from different studies.
A part holds a random share of what one study measured. Changes are numbered by the printed parent chain.

Series 1
Target: Prothrombin, mature alpha-thrombin (F2, Homo sapiens, UniProt P00734)
Technique: aptamer microarray, sandwich
Form: DNA with 2'F-ANA
Matrix: in vitro
Tested at: 200 nM
Notes: whole 15-mer aptamer, many near background
Together with: Cy3 exosite-II aptamer, 400 nM
Reading: higher = stronger binding
Endpoint: mean fluorescence intensity
Sequence: GGTTGGTGTGGTTGG
2'F-ANA at 1 2 5 8 10 11 12: 52.7 a.u.
2'F-ANA at 1 2 5 7 14 15: 49.2 a.u.
2'F-ANA at 2 3 4 5 6 8 11 14: 54.2 a.u.
2'F-ANA at 1 5 6 7 8 10 11 12: 63 a.u.
2'F-ANA at 1 8 9 11 12 14: 67.3 a.u.
2'F-ANA at 1 6 8 9 10 13 15: 118 a.u.
2'F-ANA at 1 2 3 5 7 11 13 14 15: 46.7 a.u.
2'F-ANA at 2 5 6 9 13: 50.8 a.u.
2'F-ANA at 1 2 3 4 5 8 9 12 13: 76.4 a.u.
2'F-ANA at 1 2 3 6 7 8 11 12 13 15: 324 a.u.
2'F-ANA at 2 3 5 6 9 10 11 14 15: 53.6 a.u.
2'F-ANA at 2 4 6 7 8 9 10 12 13 15: 82.8 a.u.
2'F-ANA at 2 3 4 5 6 8 9 10 11 12 14: 47 a.u.
2'F-ANA at 1 5 9 11 12 13: 69.5 a.u.
2'F-ANA at 2 3 4 5 6 7 8 10 11 12: 62.5 a.u.

Series 2
Target: Interferon regulatory factor 7, full length, phosphomimetic (IRF7, Homo sapiens, UniProt Q92985, residues 1-503, S101K/S471D/S472D/S475D/S476D/S477D/S483D/S484D/S487D)
Technique: protein-binding microarray
Form: double-stranded DNA, one strand shown
Matrix: in vitro
Tested at: 250 nM
Notes: 60-bp whole probe
Together with: salmon DNA 0.4 mg/ml
Baseline: random background probes
Reading: higher = stronger binding
Endpoint: log fluorescence
Shared flanks, not repeated: GCCTAGCAC … GTCTTGATTCGCTTGACGCTGCTG
Target sequence (chain): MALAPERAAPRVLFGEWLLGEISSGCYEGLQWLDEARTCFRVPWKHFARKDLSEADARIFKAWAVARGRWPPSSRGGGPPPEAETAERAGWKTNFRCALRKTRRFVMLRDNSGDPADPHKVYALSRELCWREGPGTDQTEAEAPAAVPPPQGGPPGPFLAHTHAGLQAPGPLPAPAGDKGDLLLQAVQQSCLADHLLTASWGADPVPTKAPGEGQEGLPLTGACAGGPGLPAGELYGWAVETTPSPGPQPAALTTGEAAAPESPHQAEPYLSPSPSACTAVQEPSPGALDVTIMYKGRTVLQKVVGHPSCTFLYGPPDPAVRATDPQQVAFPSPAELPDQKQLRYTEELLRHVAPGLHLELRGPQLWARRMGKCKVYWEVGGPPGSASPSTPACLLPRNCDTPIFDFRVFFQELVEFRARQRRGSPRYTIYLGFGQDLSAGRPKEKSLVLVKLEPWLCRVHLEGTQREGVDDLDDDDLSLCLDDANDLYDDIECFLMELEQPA
CACTCTGTCCCTCTGTGACAGTGCTAG: 0.385 z-score
GGCGGACTGCTACTGCTGACGTGCTAG: -1.14 z-score
TTAGGTTTCGAGACTGGGTTAGTGCTA: 4.6 z-score
GACGGACTGAACTTTCGGGACGTGCTA: -0.289 z-score
GATGGTATCGACTATCGGGACGTGCTA: -0.204 z-score
TTAGGACTGGGACTGCGTTAGTGCTAG: -0.724 z-score
TCTTATATACCTGTATATCTGTGCTAG: 0.451 z-score
GACGATCTAAGTATCGAGACGTGCTAG: 0.431 z-score
ATAGATTTCGGGTATCGATTAGTGCTA: 1.96 z-score
TTAGAACTGGGGACTGTATTAGTGCTA: -0.245 z-score
GATGAACTGGGGACTGGAGACGTGCTA: -0.811 z-score
GACGGATTGGGTCTCGGGACGTGCTAG: -0.301 z-score
TCAAGACTTTCTTTCAAACTGTGCTAG: 0.477 z-score

Series 3
Target: Histone acetyltransferase KAT6A, winged helix 2, GST fusion (KAT6A, Homo sapiens, UniProt Q92794, residues 85-181)
Technique: protein binding microarray
Form: double-stranded DNA, one strand shown
Matrix: in vitro
Tested at: not given
Notes: 8-mer, flanks averaged, mean of 2 arrays, mostly near background
Baseline: not given
Reading: higher = stronger binding
Endpoint: E-score
Target sequence (chain): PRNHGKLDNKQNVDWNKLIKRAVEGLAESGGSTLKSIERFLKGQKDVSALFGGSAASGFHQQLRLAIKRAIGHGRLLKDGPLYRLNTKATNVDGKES
ACGCTACT: 0.127
GCAAGTGA: -0.0893
AAGTTGGA: -0.0253
CCGATAAC: -0.00553
CATCTACC: -0.103
CATTATCG: -0.0856
ACTCGTAC: -0.187
AAGCCATT: -0.0751
TCCCACAA: 0.176
CTGCCCAA: -0.108
ATACGTGA: -0.22
CAGACCCG: 0.151
GGTGCTAC: -0.14
AACCACGT: -0.252
GAACTACA: -0.107
ACAGATTA: -0.132
TAAACAGA: 0.043
GACCGGTA: -0.0418
GAACGTGC: -0.161
CTACCGGC: 0.0146
CATCAGGA: 0.0881
CCGGGTCC: 0.0658

Series 4
Target: ABI1, truncated, D143A, DHFR fusion (Arabidopsis thaliana)
Technique: DHFR PCA, deep sequencing
Matrix: yeast
Notes: methotrexate growth selection, single substitutions
Together with: (+)-ABA 0.0091 µM
Baseline: wild-type fitted maximum
Reading: higher = stronger binding
Endpoint: relative binding score
Starting sequence: PYL1, truncated, DHFR fusion (Arabidopsis thaliana); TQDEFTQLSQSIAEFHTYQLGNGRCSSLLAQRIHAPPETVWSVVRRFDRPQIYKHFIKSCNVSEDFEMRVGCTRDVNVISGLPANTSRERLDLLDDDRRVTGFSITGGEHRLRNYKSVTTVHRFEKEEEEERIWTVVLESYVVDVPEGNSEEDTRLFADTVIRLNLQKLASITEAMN; partner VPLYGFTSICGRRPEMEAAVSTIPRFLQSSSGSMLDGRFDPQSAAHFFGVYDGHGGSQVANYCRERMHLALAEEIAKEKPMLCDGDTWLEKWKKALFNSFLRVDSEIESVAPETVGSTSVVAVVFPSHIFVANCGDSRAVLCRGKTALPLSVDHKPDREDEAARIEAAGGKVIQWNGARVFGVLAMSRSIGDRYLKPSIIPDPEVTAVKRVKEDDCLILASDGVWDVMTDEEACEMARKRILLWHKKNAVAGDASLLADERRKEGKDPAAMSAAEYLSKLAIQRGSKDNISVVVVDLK
L91W: 1.75%
E152L: 5.15%
T73I: 37.4%
L8A: -2.48%
E128Y: 22.3%
K168I: -5.08%
L28Q: -1.12%
K126E: 36%
K116I: -1.75%
S140D: -5.99%
S150G: 0.111%

Series 5
Target: RNA binding protein fox-1 homolog 2, RRM domain, GST-SBP tag (RBFOX2, Homo sapiens, UniProt O43251-10, residues 100-194)
Technique: RNA Bind-n-Seq
Form: RNA
Matrix: in vitro
Tested at: 365 nM
Notes: natural RNA segment, single round, ends assumed
Baseline: no-protein control
Reading: higher = stronger binding
Endpoint: RBNS enrichment (R)
Shared flanks, not repeated: GGGAGUUCUACAGUCCGACGAUC … UGGAAUUCUCGGGUGCCAA
Construct (chain): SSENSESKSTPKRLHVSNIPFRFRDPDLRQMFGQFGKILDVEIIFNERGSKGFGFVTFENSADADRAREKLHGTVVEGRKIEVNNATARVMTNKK
AUUUACCUUCUGUGUCCUGGCCCUGCCACCUGUGUAUUUUUAGGGUGCUAUGGAAACAAUGAAGAGAAACGGGGAUUUCAGAAGAAAAUUGUAACCAAAUUCAUAUACUU: 0.587
CUCCCCUCCCUGCCGCUGUGCUCCGCUCCUCCCCACACUUCCUUGCUACAGUUCCCAGCUGCUGUAACAGAGCCACCUCCACCUCUAACAAUAAACCAAGUUCAUUGCAG: 0.93
CACAUAGUGAGUCCAAGGUCGGCCUGGACUGCACGAGAGUCUGUCUAGGAAUGCAGUUAGUAAAAGCCUGGCGUCUACUGCAGAGUAUGUAUACUUGGUGGUAGAGGGCU: 0.442
CAUGCAGGUAAUGACAAUAUACUGUAAAUACCACAUGUGAGUUUACCUGAAUCUGUGCAUUUUGUGCCUUAUUCAUGAGAAUGAUAGAAGUACUAAAAUCUGUCAAGUGU: 0.261
AAUCUAUGACUCCCAAUAUCUUCUAGAAUAAAGAAUUUUCCCUCUUUAACACAAGGGCCCUCCUUGUCAUUGACCUUAGCUAAACCAUGGCAAUUCAUAAAUAGAGGAAA: 0.439
CAGACCAGGAAGCUCGGUGAGUGAUGGCAGAACGAUGCCUGCAGGCAUGGAACUUUUUCCGUUAUCACCCAGGCCUGAUUCACUGGCCUGGCGGAGAUGCUUCUAAGGCA: 0.577
CCCUGGGCUUCGUGAAAUGGCACAGUCAUUGGUAAUCUUCAAAAAGCCAGAAGCCCAGGACCUCCUUUUUGCACCAGCCUAUUUGAUAGUCCUAUAUUUUUAAAGCACAC: 0.542
AUUAAGACUGCAGAGAUUUACAGAGCAUCCUUUCAAGAUCGGGGUCCGGAGGAGCAGCUUCGUGCUGCGCGAACUUUAGCAGGAGGACCGAUGAUUAGCAUUUAUGAUGC: 0.471
GCUCGUAGUCCAGCGCCUGACUCUGCGUCGGCCCAUCCCACGCUGGGGCCAGCAGAAAGAAGACAGGCUGUCCAGGCCGCACCCGCUGCAGUGGGGCACCAGCCGGCCAC: 0.341

Series 6
Target: Ras GTPase-activating protein-binding protein 1, full length (G3BP1, Homo sapiens, UniProt Q13283)
UniProt Q13283, sequence (whole entry, looked up): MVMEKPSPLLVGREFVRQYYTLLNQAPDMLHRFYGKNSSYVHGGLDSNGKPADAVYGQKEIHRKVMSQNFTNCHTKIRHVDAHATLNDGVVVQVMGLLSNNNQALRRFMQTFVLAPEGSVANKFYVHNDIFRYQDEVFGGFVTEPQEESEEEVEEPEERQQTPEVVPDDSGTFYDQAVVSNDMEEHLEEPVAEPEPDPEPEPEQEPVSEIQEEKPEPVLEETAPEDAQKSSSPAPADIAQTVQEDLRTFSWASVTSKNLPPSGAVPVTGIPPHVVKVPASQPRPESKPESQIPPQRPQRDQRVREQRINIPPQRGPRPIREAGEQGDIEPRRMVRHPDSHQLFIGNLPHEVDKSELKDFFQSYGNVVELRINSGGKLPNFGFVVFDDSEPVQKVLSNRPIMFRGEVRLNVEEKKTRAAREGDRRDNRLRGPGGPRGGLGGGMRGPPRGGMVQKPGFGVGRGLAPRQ
Technique: RNA Bind-n-Seq
Form: RNA
Matrix: in vitro
Tested at: 200 nM
Notes: whole 134-nt RNA, ends assumed
Together with: 150 mM LiCl
Baseline: input library
Reading: higher = stronger binding
Endpoint: log2 enrichment
Each molecule: 7-deaza-guanosine replaces G
Shared flanks, not repeated: GGGAGUUCUACAGUCCGACGAUC … UGGAAUUCUCGGGUGUCAAGG
AGUCCUGUGCUACACAUCGUAUGUACCGAAUCGGAAAAAAAGGAAAAAGGAAAAAGGAAAGUAUUAUGUUACGCCGUUCGGAUCUGCACU: -1.53
UGGGAGGUGGAUUUUGUUUAUUUUUUUAGCUCAUUUCAAGGGGUGGGAAUUUUUUUUUAAUAUGUGUCAUGAAUAAAGUUGUUUUUGAAA: 0.542
AAGUCCUGUGCUACACAUCGUAUGUACCGAAUCGGGUUUUGGGUUUUGGUUUUGGGAAAGUAUUAUGUUACGCCGUUCGGAUCUGCACUU: -0.892
UGGCCCUGGUGGCAUGCGGGGAGGAAGAGGUGGCCUCAUGGAUGGUGGUGGUCCCGGUGGAAUGUUCAGAGGUGGCCGUGGUGGAGACAG: 0.289
CCUCAAGUCCUGUGCUACACAUCGUAUGUACCGAAUCGGAAGGGAAGGGAAGGAAAGUAUUAUGUUACGCCGUUCGGAUCUGCACUUCCA: -0.81
CAAGUCCUGUGCUACACAUCGUAUGUACCGAAUCGGGGUUUGGGGUGGGGUGGGGAAAGUAUUAUGUUACGCCGUUCGGAUCUGCACUUC: -0.00553

Series 7
Target: Sal-like protein 4, full length isoform B (SALL4, Homo sapiens, UniProt Q9UJQ4-2, residues 1-616)
Technique: universal PBM
Form: double-stranded DNA, one strand shown
Matrix: in vitro
Tested at: not given
Notes: 8-mer, flanks averaged, mean of replicates
Reading: higher = stronger binding
Endpoint: E-score
CCGTAATA: 0.243
GCTCATGA: -0.0615
CGCAATGA: 0.0676
CCTAGAGC: -0.231
GCAAGTGA: -0.0466
AACTGACG: -0.161
CGAGGGGA: -0.2
CGAGTTAA: -0.0296
CCGTAGCA: -0.00517
CCGTCACG: -0.14
AGGGTCAC: -0.248
AGGGCCTA: -0.198
GATCACCA: -0.0839
CACACCCC: -0.125
CGTGAGTA: -0.00432
AATGGATC: -0.00262
AAAGCTCT: -0.201
ACGGAATC: -0.013
ATTTTATA: 0.386
AGGTAACC: -0.104
CCTGGTAG: -0.337
